Measured values of several laboratories.
Values joined by “and” are separate records of one study, mostly repeats; a detail may differ. ± marks the error that the study gave.
Chain of UniProt P10635 (whole entry, looked up): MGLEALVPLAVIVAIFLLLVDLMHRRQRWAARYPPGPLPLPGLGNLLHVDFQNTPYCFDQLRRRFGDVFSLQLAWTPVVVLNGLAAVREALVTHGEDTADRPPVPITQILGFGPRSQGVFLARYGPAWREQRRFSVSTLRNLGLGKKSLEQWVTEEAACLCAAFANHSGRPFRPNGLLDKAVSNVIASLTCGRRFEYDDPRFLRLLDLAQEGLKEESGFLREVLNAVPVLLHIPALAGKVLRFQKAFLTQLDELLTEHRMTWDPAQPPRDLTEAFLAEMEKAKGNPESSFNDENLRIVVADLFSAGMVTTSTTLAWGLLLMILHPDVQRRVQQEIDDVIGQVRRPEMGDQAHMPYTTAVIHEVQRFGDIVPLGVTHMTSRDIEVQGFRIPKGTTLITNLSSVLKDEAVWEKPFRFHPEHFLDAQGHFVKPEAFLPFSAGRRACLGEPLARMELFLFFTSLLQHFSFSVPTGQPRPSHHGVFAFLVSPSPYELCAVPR

With C=CC(=O)Nc1cc(Nc2nccc(-c3cn(C)c4ccccc34)n2)c(OC)cc1N(C)CCNC the recovery was 100% (storage stability; human plasma; 2 h, -80 °C, LLOQ level).
CN(C)CCCN(C(=O)c1nc2ccccc2s1)c1nc2ccc(F)cc2s1 has a translation activity of 106% (Trypanosoma cruzi; reporter mRNA translation, inhibitor, refers to: Renilla luciferase mRNA; cell-free extract; concentration not given, test 1; relative to: positive over negative control).
For COC1CN([C@H]2CC[C@H]([C@@]3(C)Oc4c(Cl)cc(C(=O)NCc5c(SC)cc(C)[nH]c5=O)c(C)c4O3)CC2)C1, “log2 fold change” read 1.04 (RNA-seq, refers to: GYG1; human, whole blood; dose not given, 24 h; relative to: pretreatment baseline).
For NC(=O)c1cccc(NC(=O)c2cc(-c3ccc(Br)cc3)n(-c3ccccc3)n2)c1, the depletion was under 15% (human liver microsomes; 4 h).
CNC(=O)C1CCCN(C(=O)C2CC3CCC2N3C(=O)[C@@H]2C[C@@H](O)CN2C(=O)NCc2cccc(Cl)c2F)C1 (mixture of isomers) has a dextrorphan formation of 155 ng/mL (Cytochrome P450 2D6 (CYP2D6, Homo sapiens, UniProt P10635); enzyme activity, inhibitor, time-dependent inhibition; 16.7 µM, preincubated without NADPH).
The Tmax of C/C(N)=N/C(=N\S(=O)(=O)c1ccc(C(F)(F)F)cc1)N1C[C@H](c2ccccc2)C(c2ccc(Cl)cc2)=N1 is reported as 120 min (male C57BL/6 mouse, brain; oral, 10 mg/kg).
CCCC[C@H](NC(C)=O)C(=O)N[C@@H](CO)C(=O)N[C@H](C(=O)N1CCC[C@H]1C(=O)N[C@]1(C)CCCCCCC=CCCC[C@@](C)(C(=O)N[C@@H](Cc2ccccc2)C(=O)N[C@@H](CCCCN)C(=O)N[C@@H](CCCNC(=N)N)C(=O)N[C@@H](CC(C)C)C(=O)N[C@@H](CCC(N)=O)C(N)=O)NC(=O)[C@H](CCCNC(=N)N)NC(=O)[C@H](CCCC)NC(=O)[C@H](CC(C)C)NC(=O)[C@H](CCCNC(=N)N)NC(=O)[C@H](CCCNC(=N)N)NC(=O)[C@H](CCCNC(=N)N)NC1=O)[C@@H](C)O: “remaining intact peptide” 73.8% and 62.4% (proteinase K (Tritirachium album); proteolytic stability, LC-MS; 25 µM, 184.5 min, pH 7.4).
Cc1nc2cc(C(=O)N[C@@H](C)c3ccc(C(C)(C)C)cc3)ccc2n1Cc1cccc(OC(C)(C)C(=O)O)c1 has a half-life of 43.2 min (human liver microsomes).
The IC50 of CNS(=O)(=O)Nc1nccc(Cc2c(C)c3ccc(Oc4ncccc4F)cc3oc2=O)c1F is reported as 0.0548 µM (Kasumi 1; cell viability; 7 days).
The SUV of O=C(Nc1cnccc1-c1ccc([18F])cc1)c1ccnc(NC(=O)C2CC2)c1 is reported as 1.26 (ex vivo gamma counting; FVB/NJ mice, both sexes, large intestine; intravenous, 120 min, mean, P-gp inhibitor pretreatment, together with: tariquidar 15 mg/kg iv).
Cc1ccc(OCC(=O)N(Cc2cccs2)c2ccn[nH]2)cc1 has a remaining compound of 61.8% (pooled human liver microsomes; 10 µM, 10 min; relative to: time 0).
CN1CCC[C@]1(C)/C=C/S(=O)(=O)NC(=O)Nc1c2c(cc3c1C(O)CC3)CCC2 (stereo partly drawn) — result for “Cmax at first steady-state dose”: 11300 ng/mL (human, plasma; oral, 50 mg twice daily of parent drug, day 14, metabolite of dosed drug).
For CCCCN1C(=O)c2cccc3c(NCCCCCCCCCCN4CCOCC4)ccc(c23)C1=O, the fluorescence lifetime was 4.2 ns (water; pH 6.0).
C=CC(=O)N1CCCC(n2c(=O)c3ncccc3n(Cc3ccc(Oc4ccccc4)cc3)c2=O)C1 (stereo not drawn) has a compound remaining of 0.3% (metabolic stability; male CD-1 mouse, hepatocytes; 1 µM, 2 h).
With Nc1ncc(-c2cc(-c3cnn(CC(F)(F)F)c3)ncc2F)nc1C(=O)NC1CNCC(F)C1 (stereo not drawn) the remaining binding was 80% (HCK; KINOMEscan; 1 µM; relative to: DMSO control).
For C=CC(=O)Nc1cccc(Cn2ncc3cnc(Nc4cnn(CCOC)c4)nc32)c1, “percent of control” read 93% (CDK8 human; binding, KINOMEscan; 100 nM; lower = stronger binding).
Under “revertant fold increase”, O=C1C2CC3CC1CC(C(=O)N1CCN(c4ccc([N+](=O)[O-])c5ncccc45)CC1)(C3)C2 is recorded as 1.3 (Salmonella typhimurium; Ames test; TA98; 0.05 µg/well, without S9; relative to: vehicle).
C=C(NC(=O)c1csc(-c2nc3c(cc2O)-c2nc(cs2)C(=O)NC(C(C)O)C(=O)NC(=C(C)OC)c2nc(cs2)C(=O)NC2c4nc(cs4)C(=O)NC(COC(=O)c4c5c6c(cccc6n4O)COC(=O)C(OC4CC(C)(O)C(N(C)C)C(C)O4)C2OC5)c2nc-3cs2)n1)C(N)=O (stereo not drawn) has a Tmax of 6 min (Sprague-Dawley rat, male, plasma; intravenous infusion, 6 mg/kg, multiple doses, day 7).
The tracer uptake of CC(C(=O)O)n1nc(Cn2cc3cc(OCC[18F])c(Cl)cc3n2)c2ccccc2c1=O (racemic) is reported as 0.5 %ID/g (rat, blood; 2 h).
With N#C[C@@H]1CC(F)(F)CN1C(=O)CNC(=O)c1ccnc2c(NC(=O)[C@H](CCCCNC(=O)CCOCCOCCOCCOCCOCCOCCNC(=O)CN3CCN(CC(=O)[O-])CCN(CC(=O)[O-])CCN(CC(=O)[O-])CC3)NC(=O)CCCc3ccc(I)cc3)cccc12.[177Lu+3] the tissue uptake was 0.87 ± 0.36 %ID/g (mouse, U-87 MG tumour xenograft, kidneys; 48 h).
For CNc1cc(N)c(C(N)=O)cn1, “concentration at time” read 33.6 µM (Han Wistar rats, male, plasma; oral, 30 mg/kg, 0.50 h).
With Cc1nn(-c2nc3c(F)cc(F)cc3s2)c(O)c1C(c1ccc(C(F)(F)F)cc1)c1c(C)nn(-c2nc3c(F)cc(F)cc3s2)c1O the Clast was 253 ng/mL and 272 ng/mL and 1770 ng/mL (ICR mouse, plasma; intravenous, 5 mg/kg).
CN([O-])C(=O)CN1CCN(CC(=O)N(C)[O-])CCN(Cc2ccccn2)CC1.[89Zr+4] has a tracer uptake of 0.77 %ID/g (mouse, lung; intravenous, 4 h).
The body weight of CN1CCCNC(=O)c2cccc(c2)C(=O)NCCCN(C)CCCNc2cccc3c2C(=O)c2cccc(c2C3=O)NCCC1 is reported as 26 g and 29 g (mouse xenograft model; dose not given, day 2).

A few entries again:
The Tmax of C/C(N)=N/C(=N\S(=O)(=O)c1ccc(C(F)(F)F)cc1)N1C[C@H](c2ccccc2)C(c2ccc(Cl)cc2)=N1 is reported as 120 min (male C57BL/6 mouse, brain; oral, 10 mg/kg).
